Results from different studies.
Each line is one published result; not all experiments were run side by side. Values after ≈ are worked out from the molar mass of the structure shown.

N#Cc1ccc2c(ccc3oc([N+](=O)[O-])cc32)c1 — MIC90 (Klebsiella aerogenes; REMA): > 32 µg/mL
Cn1c(=O)ccc2ccc(F)c(CCNC[C@H]3CN(c4cnc5c(n4)NC(=O)CO5)C(=O)O3)c21 — MIC90 (Enterococcus faecalis): 0.06 µg/mL (≈ 0.128 µM)
Cc1ncc([N+](=O)[O-])n1CCO — MIC90 (Bacteroides fragilis): 1 µg/mL (≈ 5.84 µM)
CCOC(=O)COc1ccc2ccc3oc([N+](=O)[O-])cc3c2c1 — MIC90 (Mycolicibacterium aurum; REMA; ATCC 23366): 0.25 µg/mL (≈ 0.793 µM)
[O-][N+]1=C(c2ccc(Cl)cc2)C2=NCCN2c2ccccc21 — MIC90 (Parabacteroides distasonis and Bacteroides spp.; bacterial growth): 0.125 µg/mL (≈ 0.42 µM)
CN[C@H](CC(C)C)C(=O)N[C@H]1C(=O)N[C@@H](CC(N)=O)C(=O)N[C@H]2C(=O)N[C@H]3C(=O)N[C@H](C(=O)N[C@H](C(=O)O)c4cc(O)cc(O)c4-c4cc3ccc4O)[C@H](O)c3ccc(c(Cl)c3)Oc3cc2cc(c3O[C@@H]2O[C@H](CO)[C@@H](O)[C@H](O)[C@H]2O[C@H]2C[C@](C)(N)[C@H](O)[C@H](C)O2)Oc2ccc(cc2Cl)[C@H]1O — MIC90 (Streptococcus pyogenes; erythromycin-resistant, 19 strains): 0.5 µg/mL (≈ 0.345 µM)
O=[N+]([O-])c1cc2c(ccc3cc(Br)ccc32)o1 — MIC90 (Klebsiella aerogenes; REMA): > 32 µg/mL
O=[N+]([O-])c1ccc(C2=[N+]([O-])c3ccccc3N3CCN=C23)cc1 — MIC90 (Bacteroides fragilis): ≤ 0.06 µg/mL
CC[C@H](C)[C@H](NC(=O)[C@H](C)NC(=O)[C@H](CCCCN)NC(=O)[C@H](CC(C)C)NC(=O)[C@H](C)NC(=O)[C@@H](NC(=O)[C@H](Cc1c[nH]cn1)NC(=O)[C@H](CC(C)C)NC(=O)[C@@H](NC(=O)[C@@H](NC(=O)[C@H](CCCCN)NC(=O)[C@H](C)NC(=O)[C@H](C)NC(=O)[C@H](CO)NC(=O)[C@H](CCCCN)NC(=O)[C@H](Cc1ccccc1)NC(=O)[C@@H](NC(=O)[C@H](CCCCN)NC(=O)[C@H](CC(C)C)NC(=O)[C@H](Cc1ccccc1)NC(=O)[C@H](CO)NC(=O)[C@H](CCCCN)NC(=O)[C@H](Cc1c[nH]c2ccccc12)NC(=O)[C@H](CCCCN)NC(C)=O)[C@@H](C)O)[C@@H](C)O)C(C)C)[C@@H](C)O)C(=O)N[C@@H](CO)C(=O)N[C@@H](CO)C(N)=O — MIC90 (Enterococcus faecalis; ATCC 29212): 32 µg/mL (≈ 10.9 µM)

Some of these lines once more:
Cc1ncc([N+](=O)[O-])n1CCO — MIC90 (Bacteroides fragilis): 1 µg/mL (≈ 5.84 µM)
